Values quoted from earlier work that unrelated publications cite.
Compare with care: the assays were run in different laboratories. ± marks the error that the study gave.
Chain of UniProt P0DPI0 (whole entry, looked up): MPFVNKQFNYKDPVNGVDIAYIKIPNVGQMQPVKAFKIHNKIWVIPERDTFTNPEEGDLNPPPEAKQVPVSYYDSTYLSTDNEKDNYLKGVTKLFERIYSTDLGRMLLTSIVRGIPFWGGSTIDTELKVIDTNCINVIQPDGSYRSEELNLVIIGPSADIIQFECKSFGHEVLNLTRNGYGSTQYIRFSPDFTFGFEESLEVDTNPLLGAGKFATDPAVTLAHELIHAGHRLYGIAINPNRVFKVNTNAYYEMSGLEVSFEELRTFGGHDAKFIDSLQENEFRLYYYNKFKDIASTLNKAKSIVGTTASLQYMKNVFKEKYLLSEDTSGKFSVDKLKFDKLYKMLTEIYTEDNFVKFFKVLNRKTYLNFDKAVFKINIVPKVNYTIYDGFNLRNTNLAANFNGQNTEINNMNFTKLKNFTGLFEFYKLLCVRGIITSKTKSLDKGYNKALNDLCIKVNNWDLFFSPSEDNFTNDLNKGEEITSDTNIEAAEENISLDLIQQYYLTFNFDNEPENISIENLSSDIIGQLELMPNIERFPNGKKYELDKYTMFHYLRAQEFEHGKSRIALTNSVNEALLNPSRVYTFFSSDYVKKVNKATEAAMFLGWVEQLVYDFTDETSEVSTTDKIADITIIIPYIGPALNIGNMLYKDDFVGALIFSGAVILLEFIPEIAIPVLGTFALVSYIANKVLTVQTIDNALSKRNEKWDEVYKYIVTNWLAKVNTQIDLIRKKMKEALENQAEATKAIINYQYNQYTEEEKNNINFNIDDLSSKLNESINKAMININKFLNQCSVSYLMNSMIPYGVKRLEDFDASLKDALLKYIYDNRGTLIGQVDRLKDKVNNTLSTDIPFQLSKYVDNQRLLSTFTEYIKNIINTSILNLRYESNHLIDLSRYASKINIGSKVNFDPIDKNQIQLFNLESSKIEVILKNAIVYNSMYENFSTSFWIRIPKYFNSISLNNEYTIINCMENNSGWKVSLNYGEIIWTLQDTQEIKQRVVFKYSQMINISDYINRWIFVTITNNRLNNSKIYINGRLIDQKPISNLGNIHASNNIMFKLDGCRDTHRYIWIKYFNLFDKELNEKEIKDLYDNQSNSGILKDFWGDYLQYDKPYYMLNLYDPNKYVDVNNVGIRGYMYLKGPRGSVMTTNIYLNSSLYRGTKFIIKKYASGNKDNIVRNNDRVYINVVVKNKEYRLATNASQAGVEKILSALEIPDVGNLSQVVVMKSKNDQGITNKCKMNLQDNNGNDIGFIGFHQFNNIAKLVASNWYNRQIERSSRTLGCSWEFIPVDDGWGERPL

For COc1cccc2[nH]c(C(=O)N[C@@H](CC(C)C)C(=O)N[C@@H](C[C@@H]3CCNC3=O)C(=O)c3nc4ccccc4s3)cc12, the Ki was 17.6 nM (SARS-CoV-2 main protease; reversible covalent inhibitor).
Nc1nc2c(ncn2C2OC(COP(=O)(O)OP(=O)(O)OP(=O)(O)O)C(O)C2O)c(=O)[nH]1 (stereo not shown): enzyme activity “no inhibition” (vaccinia virus D10 MBP fusion; inhibitor; concentration not given, single turnover).
For O=C(c1cc(=O)[nH]c(=O)[nH]1)N1CCC(c2cc(Cl)c(Cl)c(Cl)c2)CC1, the IC50 was 290 nM (Replicase polyprotein 1ab, main protease (rep, Severe acute respiratory syndrome coronavirus 2, UniProt P0DTD1); inhibitor).
For CNC(=O)C1CC(n2c(-c3cncc4ccccc34)nc3cccc(C(=O)NC(C)c4ccccc4)c32)C1 (stereo not shown), the Ki was 571 nM (SARS-CoV-2 main protease; inhibitor).
For O=C(/C=C/c1ccc(O)c2oc(-c3ccc(O)c(O)c3)cc12)O[C@H](Cc1ccc(O)c(O)c1)C(=O)O, the Kd was 284000 nM (SARS-CoV-2 spike S2; binding).
The IC50 of COc1c(O)cc2oc3cc(O)c(CC=C(C)C)c(O)c3c(=O)c2c1CC=C(C)C is reported as 12200 ± 1200 nM (Clostridium perfringens neuraminidase; enzyme activity, inhibitor).
With CNC(=O)C1CC(n2c(-c3cncc4ccccc34)nc3cccc(C(=O)NC(C)c4ccc(C(F)(F)F)cc4)c32)C1 (stereo not shown) the Ki was 46 nM (SARS-CoV-2 main protease; inhibitor).
With Oc1cc(O)c2c(c1)OC(c1ccc(O)c(O)c1)C(O)C2c1c(O)cc(O)c2c1OC(c1ccc(O)c(O)c1)C(O)C2 (stereo not shown) the IC50 was 2400 ± 300 nM (Replicase polyprotein 1ab, papain-like protease (rep, Severe acute respiratory syndrome coronavirus 2, UniProt P0DTD1); enzyme activity; added: Z-RLRGG-AMC substrate).
For C=C(C)[C@@H]1CC[C@]2(COC(=O)CCC(=O)O)CCC3C4CCC5C(CC[C@H](O)C5(C)C)C4CCC3C12 (stereo partly shown), the IC50 was 1500 nM (Botulinum neurotoxin type A, light chain (Clostridium botulinum, UniProt P0DPI0); inhibitor).
With O=C(Oc1cccnc1)c1ccco1 the IC50 was 7900 nM (Replicase polyprotein 1ab, main protease (rep, Severe acute respiratory syndrome-related coronavirus, UniProt P0C6X7)).

A few entries again:
With CNC(=O)C1CC(n2c(-c3cncc4ccccc34)nc3cccc(C(=O)NC(C)c4ccc(C(F)(F)F)cc4)c32)C1 (stereo not shown) the Ki was 46 nM (SARS-CoV-2 main protease; inhibitor).
